Measurements collected from several papers.
Parts stem from different laboratories: compare values within a part only.
Chain of UniProt Q9HBH9 (whole entry, looked up): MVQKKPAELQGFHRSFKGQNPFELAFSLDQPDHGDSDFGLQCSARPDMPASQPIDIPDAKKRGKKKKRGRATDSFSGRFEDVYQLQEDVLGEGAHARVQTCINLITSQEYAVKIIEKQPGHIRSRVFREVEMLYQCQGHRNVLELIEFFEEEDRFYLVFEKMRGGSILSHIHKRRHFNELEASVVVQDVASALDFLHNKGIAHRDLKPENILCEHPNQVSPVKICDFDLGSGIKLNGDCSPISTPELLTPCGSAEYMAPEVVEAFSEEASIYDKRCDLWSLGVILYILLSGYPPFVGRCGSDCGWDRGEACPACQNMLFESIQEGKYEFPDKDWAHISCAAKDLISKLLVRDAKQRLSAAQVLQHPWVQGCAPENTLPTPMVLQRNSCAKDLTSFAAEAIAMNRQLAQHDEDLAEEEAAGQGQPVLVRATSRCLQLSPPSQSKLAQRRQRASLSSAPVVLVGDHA
Chain of UniProt Q8WXR4 (whole entry, looked up): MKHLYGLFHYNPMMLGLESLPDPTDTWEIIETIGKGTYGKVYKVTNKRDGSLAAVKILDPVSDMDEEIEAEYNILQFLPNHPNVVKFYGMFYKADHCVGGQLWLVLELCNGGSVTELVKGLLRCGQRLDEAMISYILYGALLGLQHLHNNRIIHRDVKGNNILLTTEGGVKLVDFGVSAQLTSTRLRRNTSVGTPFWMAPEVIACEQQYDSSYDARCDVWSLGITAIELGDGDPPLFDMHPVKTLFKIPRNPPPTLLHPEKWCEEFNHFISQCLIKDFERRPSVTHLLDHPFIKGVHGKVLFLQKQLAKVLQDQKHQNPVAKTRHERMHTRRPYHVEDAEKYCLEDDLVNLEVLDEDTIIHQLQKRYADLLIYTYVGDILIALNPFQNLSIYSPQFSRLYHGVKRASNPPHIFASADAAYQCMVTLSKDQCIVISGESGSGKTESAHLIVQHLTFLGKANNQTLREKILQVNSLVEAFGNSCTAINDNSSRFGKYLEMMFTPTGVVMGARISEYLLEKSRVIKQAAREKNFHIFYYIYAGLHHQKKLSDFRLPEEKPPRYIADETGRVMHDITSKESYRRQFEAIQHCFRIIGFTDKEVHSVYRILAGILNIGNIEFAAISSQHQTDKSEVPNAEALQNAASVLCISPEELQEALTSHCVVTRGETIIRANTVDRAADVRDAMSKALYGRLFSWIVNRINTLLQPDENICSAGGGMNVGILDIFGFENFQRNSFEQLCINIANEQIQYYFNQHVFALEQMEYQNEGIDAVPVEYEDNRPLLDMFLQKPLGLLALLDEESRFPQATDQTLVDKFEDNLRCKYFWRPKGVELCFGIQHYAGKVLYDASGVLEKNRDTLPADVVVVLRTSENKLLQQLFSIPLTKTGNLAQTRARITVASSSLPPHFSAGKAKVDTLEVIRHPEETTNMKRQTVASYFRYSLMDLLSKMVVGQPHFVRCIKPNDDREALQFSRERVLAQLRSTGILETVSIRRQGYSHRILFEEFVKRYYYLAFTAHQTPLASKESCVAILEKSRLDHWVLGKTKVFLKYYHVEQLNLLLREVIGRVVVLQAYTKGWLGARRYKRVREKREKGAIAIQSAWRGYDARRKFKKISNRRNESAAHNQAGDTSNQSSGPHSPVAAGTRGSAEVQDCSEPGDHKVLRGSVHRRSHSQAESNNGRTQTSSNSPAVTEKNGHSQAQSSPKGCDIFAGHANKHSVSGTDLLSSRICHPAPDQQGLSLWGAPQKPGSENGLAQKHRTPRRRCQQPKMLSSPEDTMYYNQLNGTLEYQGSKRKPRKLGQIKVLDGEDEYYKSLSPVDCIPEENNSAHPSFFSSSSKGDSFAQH
Chain of UniProt Q6P2M8 (whole entry, looked up): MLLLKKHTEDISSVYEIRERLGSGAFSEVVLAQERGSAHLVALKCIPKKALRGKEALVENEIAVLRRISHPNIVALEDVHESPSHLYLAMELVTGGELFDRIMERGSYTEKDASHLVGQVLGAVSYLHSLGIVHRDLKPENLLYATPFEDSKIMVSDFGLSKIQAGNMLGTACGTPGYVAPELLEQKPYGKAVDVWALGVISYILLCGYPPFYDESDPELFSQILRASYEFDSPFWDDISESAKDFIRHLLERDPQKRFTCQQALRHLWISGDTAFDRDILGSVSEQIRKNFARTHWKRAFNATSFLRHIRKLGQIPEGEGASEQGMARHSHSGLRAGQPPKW
Chain of UniProt Q9UQB9 (whole entry, looked up): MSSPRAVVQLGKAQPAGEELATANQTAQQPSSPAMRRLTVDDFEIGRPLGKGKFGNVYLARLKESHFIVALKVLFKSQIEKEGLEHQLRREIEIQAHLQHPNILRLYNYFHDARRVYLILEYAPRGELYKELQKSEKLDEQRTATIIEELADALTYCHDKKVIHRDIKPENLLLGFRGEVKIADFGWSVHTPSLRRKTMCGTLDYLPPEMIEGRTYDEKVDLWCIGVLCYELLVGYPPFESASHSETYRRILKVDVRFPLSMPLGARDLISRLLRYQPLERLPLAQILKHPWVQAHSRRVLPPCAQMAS
Chain of UniProt Q8N4C8 (whole entry, looked up): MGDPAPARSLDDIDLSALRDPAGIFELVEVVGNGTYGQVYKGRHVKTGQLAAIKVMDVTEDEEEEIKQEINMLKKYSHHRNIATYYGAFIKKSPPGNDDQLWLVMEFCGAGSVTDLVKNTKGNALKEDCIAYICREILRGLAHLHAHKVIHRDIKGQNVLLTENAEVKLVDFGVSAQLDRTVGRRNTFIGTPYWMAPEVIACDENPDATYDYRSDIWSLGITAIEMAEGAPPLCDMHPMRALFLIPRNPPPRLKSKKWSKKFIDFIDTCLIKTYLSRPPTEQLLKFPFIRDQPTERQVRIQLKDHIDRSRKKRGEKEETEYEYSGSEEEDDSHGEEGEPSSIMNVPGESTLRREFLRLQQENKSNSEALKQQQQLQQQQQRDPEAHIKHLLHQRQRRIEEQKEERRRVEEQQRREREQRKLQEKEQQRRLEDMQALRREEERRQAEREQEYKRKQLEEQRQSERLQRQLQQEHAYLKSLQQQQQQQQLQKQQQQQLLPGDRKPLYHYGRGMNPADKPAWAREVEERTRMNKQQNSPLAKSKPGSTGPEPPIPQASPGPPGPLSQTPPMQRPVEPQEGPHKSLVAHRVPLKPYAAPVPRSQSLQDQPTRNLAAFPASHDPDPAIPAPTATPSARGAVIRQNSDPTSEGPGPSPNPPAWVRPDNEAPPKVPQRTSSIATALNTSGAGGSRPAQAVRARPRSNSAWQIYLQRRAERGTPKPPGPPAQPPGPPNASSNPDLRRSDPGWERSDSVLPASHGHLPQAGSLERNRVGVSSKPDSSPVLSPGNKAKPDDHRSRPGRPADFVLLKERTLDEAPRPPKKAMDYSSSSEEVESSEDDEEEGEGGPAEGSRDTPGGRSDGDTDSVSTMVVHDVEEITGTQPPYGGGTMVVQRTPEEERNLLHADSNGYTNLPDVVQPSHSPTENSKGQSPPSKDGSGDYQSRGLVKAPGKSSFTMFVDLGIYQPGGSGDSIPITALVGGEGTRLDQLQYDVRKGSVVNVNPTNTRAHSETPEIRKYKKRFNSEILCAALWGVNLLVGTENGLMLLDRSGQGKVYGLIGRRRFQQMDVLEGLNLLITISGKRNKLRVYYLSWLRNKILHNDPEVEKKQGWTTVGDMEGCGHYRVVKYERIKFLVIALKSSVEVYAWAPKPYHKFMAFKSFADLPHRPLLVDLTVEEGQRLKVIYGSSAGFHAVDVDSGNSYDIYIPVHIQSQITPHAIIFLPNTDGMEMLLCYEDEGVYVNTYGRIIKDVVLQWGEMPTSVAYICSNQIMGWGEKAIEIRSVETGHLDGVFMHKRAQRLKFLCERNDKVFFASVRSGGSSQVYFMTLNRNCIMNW
Chain of UniProt Q8TF76 (whole entry, looked up): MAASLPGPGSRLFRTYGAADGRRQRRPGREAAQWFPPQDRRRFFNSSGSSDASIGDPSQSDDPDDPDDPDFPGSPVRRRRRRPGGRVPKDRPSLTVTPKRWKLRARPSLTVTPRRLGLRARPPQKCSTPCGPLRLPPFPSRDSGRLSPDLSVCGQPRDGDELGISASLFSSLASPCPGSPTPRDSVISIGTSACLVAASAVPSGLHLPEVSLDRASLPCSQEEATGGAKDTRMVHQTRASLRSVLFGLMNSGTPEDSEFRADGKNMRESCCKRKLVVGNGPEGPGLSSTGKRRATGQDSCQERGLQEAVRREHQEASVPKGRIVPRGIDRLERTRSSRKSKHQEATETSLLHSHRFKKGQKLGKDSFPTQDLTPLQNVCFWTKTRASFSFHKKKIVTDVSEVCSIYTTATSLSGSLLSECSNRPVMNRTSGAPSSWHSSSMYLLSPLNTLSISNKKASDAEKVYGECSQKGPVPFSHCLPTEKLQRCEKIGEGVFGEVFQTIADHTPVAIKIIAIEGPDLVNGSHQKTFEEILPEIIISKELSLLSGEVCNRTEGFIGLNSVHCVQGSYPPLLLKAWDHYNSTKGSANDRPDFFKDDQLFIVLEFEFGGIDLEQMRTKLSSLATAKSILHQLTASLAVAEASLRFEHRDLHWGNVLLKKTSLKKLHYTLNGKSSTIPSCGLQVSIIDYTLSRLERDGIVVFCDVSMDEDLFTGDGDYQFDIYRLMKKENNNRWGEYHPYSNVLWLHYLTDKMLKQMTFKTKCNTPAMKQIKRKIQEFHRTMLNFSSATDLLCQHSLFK
Chain of UniProt Q16566 (whole entry, looked up): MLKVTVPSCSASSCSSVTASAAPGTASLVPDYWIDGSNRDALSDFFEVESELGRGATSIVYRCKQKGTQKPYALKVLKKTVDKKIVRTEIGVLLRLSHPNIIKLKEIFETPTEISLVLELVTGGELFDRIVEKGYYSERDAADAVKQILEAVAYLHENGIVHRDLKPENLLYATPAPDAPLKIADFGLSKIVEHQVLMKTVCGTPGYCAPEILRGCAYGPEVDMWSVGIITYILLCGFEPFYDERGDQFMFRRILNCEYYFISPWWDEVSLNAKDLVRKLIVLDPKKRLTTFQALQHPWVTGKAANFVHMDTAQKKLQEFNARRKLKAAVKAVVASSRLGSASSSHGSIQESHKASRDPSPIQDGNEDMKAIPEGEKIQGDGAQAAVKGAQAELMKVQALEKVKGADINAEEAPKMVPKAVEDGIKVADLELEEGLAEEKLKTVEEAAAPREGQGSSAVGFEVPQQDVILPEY

Study 1 — technique: phase 2a trial; species: idiopathic pulmonary fibrosis patients
SMILES: CC(C)n1cnc(-c2ccc(F)cc2)c1-c1ncc(C(=O)Nc2ccc(N3CCN(C)CC3)cc2)[nH]1
dose | notes | patients with cough
30 mg once daily | adverse event grade 3 | 0%
30 mg once daily | adverse event grade 4 | 0%
30 mg once daily | adverse event grade 2 | 0%
dose not given | adverse event grade 5, all dose arms pooled | 0%
30 mg once daily | adverse event grade 5 | 0%

Study 2 — effect on: cell-free assay; technique: competition with immobilised ligand; tested at: 1 µM
SMILES: O=C1CCc2cc(Nc3cc(OC4CCOCC4)c([N+](=O)[O-])cc3Cl)ccc2N1
target | remaining binding
STK11 (Homo sapiens, UniProt Q15831) | 100%
NEK5 (Homo sapiens, UniProt Q6P3R8) | 96%
HASPIN (Homo sapiens, UniProt Q8TF76) | 100%
MKNK2 (Homo sapiens, UniProt Q9HBH9) | 98%
CDK13 (Homo sapiens, UniProt Q14004) | 100%
CHUK (Homo sapiens, UniProt O15111) | 100%
Aurora kinase C (AURKC, Homo sapiens, UniProt Q9UQB9) | 100%
MAP3K6 (Homo sapiens, UniProt O95382) | 91%
Tyrosine-protein kinase ABL1, non-phosphorylated (ABL1, Homo sapiens, UniProt P00519, F317L) | 74%

Study 3 — cell line: HaCaT; tested at: 100 µM; time: 18 h
Structure (SMILES) | viability [%]
C[N+]1(C)CCCC(OC(=O)C(O)(c2ccccc2)c2ccccc2)C1 (stereo not shown) | 112
O=C(O)c1cccnc1Nc1cccc(C(F)(F)F)c1 | 88
O=C(COc1ccc(Cl)cc1)N1CCN(Cc2ccc3c(c2)OCO3)CC1 | 90.7
c1ccc2[nH]c(-c3cscn3)nc2c1 | 74.5
Cc1ccc(C(=O)c2ccc(CC(=O)O)n2C)cc1 | 95.6
Nc1ccn([C@@H]2O[C@H](CO)[C@@H](O)C2(F)F)c(=O)n1 | 82.5
CO[C@]12C[C@@H](COC(=O)c3cncc(Br)c3)CN(C)[C@@H]1Cc1cn(C)c3cccc2c13 | 18.6
CC1=C(/C=C/C(C)=C/C=C/C(C)=C/C=C/C=C(C)/C=C/C=C(C)/C=C/C2=C(C)C(=O)[C@@H](O)CC2(C)C)C(C)(C)C[C@H](O)C1=O | 97.1
CCCCC(C)(O)C/C=C/[C@H]1[C@H](O)CC(=O)[C@@H]1CCCCCCC(=O)OC (mixture of isomers) | 108

Study 4 — SMILES: COc1cc2ncc(-c3ccccc3)nc2cc1OC; effect on: enzyme activity; mode: inhibitor; tested at: 0.5 µM; baseline: control
target | remaining activity [%]
MARK2 (Homo sapiens, UniProt Q7KZI7) | 112
DCLK2 (Homo sapiens, UniProt Q8N568) | 96
MINK1 (Homo sapiens, UniProt Q8N4C8) | 93.5
MAPK1 (Homo sapiens, UniProt P28482) | 95.6
PLK3 (Homo sapiens, UniProt Q9H4B4) | 98.3
CAMK4 (Homo sapiens, UniProt Q16566) | 95.2
TXK (Homo sapiens, UniProt P42681) | 93.4
Myosin-IIIb (MYO3B, Homo sapiens, UniProt Q8WXR4) | 84.6
KDR (Homo sapiens, UniProt P35968) | 85.4
Cyclin-dependent kinase 1, with cyclin A (CDK1, Homo sapiens, UniProt P06493) | 94.8
PNCK (Homo sapiens, UniProt Q6P2M8) | 98.2
MAP2K1 (Homo sapiens, UniProt Q02750) | 97.6
MAPK11 (Homo sapiens, UniProt Q15759) | 95.7
MARK4 (Homo sapiens, UniProt Q96L34) | 85.3

Excerpt of the above (study 2):
target | remaining binding
HASPIN (Homo sapiens, UniProt Q8TF76) | 100%
MKNK2 (Homo sapiens, UniProt Q9HBH9) | 98%
CDK13 (Homo sapiens, UniProt Q14004) | 100%
CHUK (Homo sapiens, UniProt O15111) | 100%
Aurora kinase C (AURKC, Homo sapiens, UniProt Q9UQB9) | 100%
